Experimental data gathered from unrelated publications.
Protocols differ between the studies behind these lines. Several values in a cell are separate wells, animals, samples, runs or records. ± marks the error that the study gave.
Chain of UniProt Q96GX5 (whole entry, looked up): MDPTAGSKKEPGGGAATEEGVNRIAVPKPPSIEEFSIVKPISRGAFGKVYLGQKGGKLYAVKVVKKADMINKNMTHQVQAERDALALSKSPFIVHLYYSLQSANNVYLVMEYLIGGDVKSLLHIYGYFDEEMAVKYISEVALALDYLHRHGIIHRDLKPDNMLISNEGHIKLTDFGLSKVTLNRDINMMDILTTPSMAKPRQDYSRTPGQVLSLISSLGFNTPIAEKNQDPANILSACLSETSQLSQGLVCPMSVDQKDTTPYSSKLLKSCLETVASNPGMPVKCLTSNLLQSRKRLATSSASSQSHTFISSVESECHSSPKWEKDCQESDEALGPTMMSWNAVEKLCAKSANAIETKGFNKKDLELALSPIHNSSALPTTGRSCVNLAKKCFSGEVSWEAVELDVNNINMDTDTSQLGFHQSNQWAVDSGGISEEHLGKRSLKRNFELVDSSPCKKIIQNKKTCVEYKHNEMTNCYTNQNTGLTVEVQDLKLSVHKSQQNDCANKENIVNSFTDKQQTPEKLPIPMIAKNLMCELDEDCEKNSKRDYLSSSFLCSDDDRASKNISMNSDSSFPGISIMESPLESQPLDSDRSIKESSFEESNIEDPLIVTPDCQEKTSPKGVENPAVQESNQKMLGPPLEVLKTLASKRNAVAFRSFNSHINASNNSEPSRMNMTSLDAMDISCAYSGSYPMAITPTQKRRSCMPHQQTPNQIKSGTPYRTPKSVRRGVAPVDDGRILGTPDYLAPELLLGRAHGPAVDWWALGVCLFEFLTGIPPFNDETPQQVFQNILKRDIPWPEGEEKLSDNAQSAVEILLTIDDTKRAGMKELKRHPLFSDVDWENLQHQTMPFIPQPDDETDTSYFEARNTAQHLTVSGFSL

The concentration of `O=C(N[C@H](Cc1c[nH]c2ccccc12)C(=O)Nc1ccncc1)c1ccc(-c2cc(C(F)(F)F)ccc2F)cc1F` is reported as 6.37 µM (Swiss Webster mouse, female, muscle; oral, 50 mg/kg, 2 h, 20% Kolliphor vehicle).
With `NCc1cc2c(cc1F)C(=O)N(C1CCC(=O)NC1=O)C2` (stereo not shown) the concentration was 10.9 µM and 9.1 µM (LC-MS/MS; phosphate buffer without enzyme; 10 µM, 0 h, pH 7.4).
With `Cc1cc([C@@H](C)Nc2ccccc2C(=O)O)c2nc(N3CCC(F)(F)CC3)c(C#N)c(=O)n2c1` the concentration was 66 ng/mL (NOD-SCID mice, HCC1954 xenograft; intraperitoneal, 60 mg/kg once daily, 8 h).
With `CN(C(=O)n1cnc(-c2cccnc2)c1)[C@H]1CC[C@H](O)CC1` the concentration was 35.3 ± 5.3 ng/g (Wistar rat, medulla oblongata; oral, 10 mg/kg/day of BIA 10-2474, 4 h, repeated 5 days).
For `O=C(N[C@H](Cc1c[nH]c2ccccc12)C(=O)Nc1ccncc1)c1ccc(N2CCN(c3ccc(F)cc3F)CC2)cc1F`, the concentration was 14.5 µM (Swiss Webster mouse, female, lung; oral, 50 mg/kg, 2 h, 20% HPβCD vehicle).
The concentration of `CN[C@H](CC(C)C)C(=O)N[C@H]1C(=O)N[C@@H](CC(N)=O)C(=O)N[C@H]2C(=O)N[C@H]3C(=O)N[C@H](C(=O)N[C@H](C(=O)O)c4cc(O)cc(O)c4-c4cc3ccc4O)[C@H](O)c3ccc(c(Cl)c3)Oc3cc2cc(c3O[C@@H]2O[C@H](CO)[C@@H](O)[C@H](O)[C@H]2O[C@H]2C[C@](C)(N)[C@H](O)[C@H](C)O2)Oc2ccc(cc2Cl)[C@H]1O` is reported as 1.4 ± 0.4 µM (E-AB sensor; male C57BL/6J mice, thalamus; intravenous, 35 mg/kg, 4 h).
Under “log2 fold change”, `Cn1cc(-c2ccc(-c3cncc(Cl)c3N3CCC4(CCNC4=O)CC3)cc2)cn1` is recorded as -6.5 (COLO 205; gene expression, microarray, measured: FAM65C mRNA; concentration not given, 6 h; baseline: untreated cells).
`O=C(N[C@H](Cc1c[nH]c2ccccc12)C(=O)Nc1ccncc1)c1ccc(-c2ccc(F)c(Cl)c2)cc1F` has a concentration of 5.69 µM (Swiss Webster mouse, female, fat; oral, 50 mg/kg, 8 h, 20% HPβCD vehicle).
`NC/C(=C\F)COc1cccc(Cn2c(=S)[nH]c(=O)c3[nH]cnc32)c1` gave a concentration of 2600 ng/mL (C57BL/6J mice, liver; oral, 15 mg/kg single, 1 h).
`CC(C)C[C@H](NC(=O)C[C@H](O)[C@H](CC(C)C)NC(=O)[C@H](Cc1c[nH]cn1)NC(=O)CNC(=O)[C@@H](NC(=O)[C@H](C)NC(=O)[C@H](Cc1c[nH]c2ccccc12)NC(=O)[C@H](CCC(N)=O)NC(=O)[C@@H](Cc1ccccc1)NC(=O)COCCOCCNC(=O)CCC(C(=O)O)N1CCN(CC(=O)O)CCN(CC(=O)O)CCN(CC(=O)O)CC1)C(C)C)C(N)=O` (stereo partly shown) [lutetium-177 labelled] has a tissue uptake of 0.9 ± 0.2 %ID/g (BALB/c nu/nu mice, large intestine; 250 pmol, 1 h, added: PA 300 µg).
Under “log2 fold change”, `c1coc(-c2n[nH]cc2-c2ccnc3ccccc23)c1` is recorded as 0.03 (RTK1 (Candida albicans); kinase binding, MIB/MS competition; Candida albicans lysate; 10 µM; baseline: DMSO).
The concentration of `CCc1c(-c2ccccc2)c(-c2ccccc2)nn1-c1ccccc1-c1cccc(OCC(=O)O)c1` is reported as 163 ng/mL and 204 ng/mL (Sprague-Dawley rat, large intestine homogenate; oral, 10 mg/kg, 1 h).
For `CC[C@@H]1[C@H](F)C(=O)N[C@@H]1COc1nccc2cc(C(N)=O)c(OC)cc12`, the inhibition was 12.7% (Serine/threonine-protein kinase greatwall (MASTL, Homo sapiens, UniProt Q96GX5); ATP-site probe binding, ActivX profiling; THP-1 cell lysate; 0.2 mM, Lys1 site).

Excerpt of the above:
Under “log2 fold change”, `c1coc(-c2n[nH]cc2-c2ccnc3ccccc23)c1` is recorded as 0.03 (RTK1 (Candida albicans); kinase binding, MIB/MS competition; Candida albicans lysate; 10 µM; baseline: DMSO).
The concentration of `CCc1c(-c2ccccc2)c(-c2ccccc2)nn1-c1ccccc1-c1cccc(OCC(=O)O)c1` is reported as 163 ng/mL and 204 ng/mL (Sprague-Dawley rat, large intestine homogenate; oral, 10 mg/kg, 1 h).
